Results from different studies.
Every numbered part comes from another study and shows a few of its results, in no order.

Block 1 — technique: aptamer microarray, sandwich; form: DNA with 2'F-ANA; medium: in vitro; tested at: 200 nM; with: Cy3 exosite-II aptamer, 400 nM; direction: higher = stronger binding; endpoint: mean fluorescence intensity; sequence: GGTTGGTGTGGTTGG
Target: Prothrombin, mature alpha-thrombin (F2, Homo sapiens, UniProt P00734)
Notes: whole 15-mer aptamer, many near background
2'F-ANA at 1 2 4 6 9 10 11 15: 60.7 a.u.
2'F-ANA at 4 5 6 7 11 13: 54 a.u.
2'F-ANA at 1 3 6 8 9 13 14 15: 93.4 a.u.
2'F-ANA at 3 5 8 11 14 15: 59 a.u.
2'F-ANA at 1 2 4 7 10 13 14 15: 49.7 a.u.
2'F-ANA at 2 3 4 6 7 8 9 10 11 12 13: 201 a.u.
2'F-ANA at 1 3 4 5 9 10 11 12 14 15: 48.6 a.u.
2'F-ANA at 3 6 7 8 9 13 14 15: 520 a.u.
2'F-ANA at 1 2 4 5 6 7 8 9: 67.1 a.u.
2'F-ANA at 2 7 10 13 15: 123 a.u.
2'F-ANA at 1 2 5 6 11 12 14 15: 49.3 a.u.
2'F-ANA at 4 5 10 11 12 13 14 15: 43.1 a.u.
2'F-ANA at 1 5 6 10 12 14 15: 50.8 a.u.
2'F-ANA at 1 2 4 7 9 10 12 13 15: 53.2 a.u.
2'F-ANA at 2 4 5 6 7 8 10 12 13 14: 53.7 a.u.
2'F-ANA at 1 4 5 9 10 11 13 15: 45.6 a.u.
2'F-ANA at 1 2 3 6 7 9 11 12 13 14: 72.3 a.u.
2'F-ANA at 2 4 5 6 7 8 12 13 14 15: 50.3 a.u.
2'F-ANA at 2 4 7 8 10 12 15: 148 a.u.
2'F-ANA at 3 4 5 6 7 10 13 14 15: 42.8 a.u.
2'F-ANA at 2 4 8 9 11 13 15: 180 a.u.
2'F-ANA at 5 8 11 13 15: 54 a.u.
2'F-ANA at 1 3 5 6 7 8 10 11 14: 51.3 a.u.
2'F-ANA at 1 3 4 5 7 8 12 13 14 15: 45 a.u.
2'F-ANA at 1 2 4 6 9 11 12 13 14 15: 53.9 a.u.

Block 2 — technique: protein binding microarray; form: double-stranded DNA, one strand shown; medium: in vitro; tested at: not given; baseline: not given; direction: higher = stronger binding; endpoint: E-score
Target: Histone acetyltransferase KAT6A, both winged helices, GST fusion (KAT6A, Homo sapiens, UniProt Q92794, residues 1-181)
Notes: 8-mer, flanks averaged, mean of 2 arrays, mostly near background
Residues (chain): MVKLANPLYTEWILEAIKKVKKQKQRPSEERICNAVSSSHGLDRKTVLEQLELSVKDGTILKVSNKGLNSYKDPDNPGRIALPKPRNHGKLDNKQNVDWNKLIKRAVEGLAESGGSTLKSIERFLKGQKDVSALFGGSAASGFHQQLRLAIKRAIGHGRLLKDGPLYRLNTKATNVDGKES
CACGTTAA: -0.113
TAGCAACA: 0.00752
CAATCGAG: -0.108
ACTGCACG: 0.0427
CACGTTTA: -0.0932
CATGTACC: 0.00275
CGGTTACA: 0.161
CGTCTCGA: 0.0857
TGGGAAAA: -0.128
AATGGCCC: -0.0652
CTTTGATC: -0.159
AGCCTTGA: -0.148
TACATTAA: -0.0996
CGTTCAAG: 0.161
CTGTTCAA: -0.099
AACTGGGC: -0.192
CGCGGACC: 0.307
GACGGACC: 0.192
ACGAGTAT: -0.0659
GTCTGAGA: -0.0619
CGATGACA: -0.0563
AACTGGCT: -0.236
CCACATGG: -0.183
GTGCGCAC: 0.351
AAACGCCA: -0.0818

Block 3 — technique: RNA Bind-n-Seq; form: RNA; medium: in vitro; tested at: 100 nM; baseline: input RNA pool; direction: higher = stronger binding; endpoint: bound/input enrichment
Target: RING finger protein unkempt homolog, zinc fingers 1-6, SBP tag (UNK, Homo sapiens, UniProt Q9C0B0, residues 30-357)
Chain of UniProt Q9C0B0 (30-357, looked up): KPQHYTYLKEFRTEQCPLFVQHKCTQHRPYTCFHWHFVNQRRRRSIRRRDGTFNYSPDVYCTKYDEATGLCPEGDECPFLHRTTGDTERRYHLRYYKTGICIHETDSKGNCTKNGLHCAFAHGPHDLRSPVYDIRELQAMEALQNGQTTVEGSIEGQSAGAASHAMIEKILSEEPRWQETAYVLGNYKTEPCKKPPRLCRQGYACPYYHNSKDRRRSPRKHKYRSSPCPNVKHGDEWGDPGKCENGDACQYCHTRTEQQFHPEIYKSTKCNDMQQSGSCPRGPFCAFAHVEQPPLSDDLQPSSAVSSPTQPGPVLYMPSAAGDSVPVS
Notes: RNA with constant flanks, vertebrate orthologous sites, ends assumed
All sequences stand within: GGGAGUUCUACAGUCCGACGAUC … CAACAGAGGAUUGAGCAUCA
AGGGAAAAGAACUCACAAACUCAAAGGAAAACUAUUAAAGAGUUCCUAACAGUUAAAAGCUAGGAAAGAUUAGGACAAGAUUACAAAUGAGAAAUUAAAAACAGAAGAAAAAGGACAGGG: 0.758 ratio
AUUAGAGCUGAAAGAAUAGCAUAGGAGAUUGUGGUCAAAAGUAGGAGCAGUCGAGGAGAGAAAUUACAAAUAUCAAGAACCAGGUGGUUAAAAGUUGGAGGUGUAGGUCAUUGAAAGUCA: 0.717 ratio
CUCUUUCCUAGGUUGGAUCCAGUGGGAAAGUCAUAGGAAUUGAUCACAUUAAGGAGUUAGUAGAUGACUCAGUAAAUAAUGUCAGAAAGGAUGAUCCACUGCUUUUGUCUUCAGGGAGAG: 0.513 ratio
CAAUUCGAUGGUCGAAGGCUCGGAACUCAAGAAGGUCCGCUCCAACUCUAGAAUUUACCACCGGUAUUUUCUCUUAGAUGCCGACAUGCAGUCCCUGCGAUGGGAGCCAUCCAAGAAGGA: 0.146 ratio
CGUGCUUAUGCUCUUCUGUGAGAGAGAUGAAUUGGGAAGAACUGUCUCCGUUUUAUAGAUUAGUUUCUUUCUAAAUUAUGACCAAAAAUAUUUUGCUAUUUCUUUCUUUGUAUAUGGACA: 0.572 ratio
CCCUCUGAAUCCCAUAUCUUCUGUUUCAUAGUGCAGAAGUAUUCUUUUCAAUUAUAUUAUUAGUGGACUUGAUUUAAUUUUAGAGAAACUUUCAGUACAGAUACUGUGAGCUUACCUGGA: 1.06 ratio

Block 4 — technique: RNA Bind-n-Seq; form: RNA; medium: in vitro; tested at: 200 nM; notes: whole 134-nt RNA, ends assumed; with: 150 mM LiCl; baseline: input library; direction: higher = stronger binding; endpoint: log2 enrichment; all molecules: 7-deaza-guanosine replaces G
Target: Fragile X messenger ribonucleoprotein 1, C-terminal low-complexity region (Fmr1, Mus musculus, UniProt P35922)
All sequences stand within: GGGAGUUCUACAGUCCGACGAUC … UGGAAUUCUCGGGUGUCAAGG
UGGGAGGUGGAUUUUGUUUAUUUUUUUAGCUCAUUUCCAGGGGUGGGAAUUUUUUUUUAAUAUGUAUCAUGAAUAAAGUUGUUUUUGAAA: -0.0512
UAACUUUUGAGGAGGAUCUGAUGGAUAUGGCAGUGGACGUGGAUUUGGGGAUGGCUAUAAUGGGUAUGGAGGAGGACCUGGAGGUGGCAA: 0.403
CACAGACAACACGCACCCACACAGACACAGAGGGAAGGGGUUGAGAUGGGGACAGGGUGCACAGCAGGGCGGGGUAGGACCCCAGCCCCU: -0.505
UGUGCUACACAUCGUAUGUACCGAAUCGGGAAAAAAAGGGAAAAAAAGGGGAAAAAAAGGGGAAAGUAUUAUGUUACGCCGUUCGGAUCU: 0.581
GUCCUGUGCUACACAUCGUAUGUACCGAAUCGGGGCCCCCGGGCCCCCGGGCCCCCGGAAAGUAUUAUGUUACGCCGUUCGGAUCUGCAC: -2.83
CUCAAGUCCUGUGCUACACAUCGUAUGUACCGAAUCGGAAAGGUGGUUUUUGGAAAGUAUUAUGUUACGCCGUUCGGAUCUGCACUUCCA: -0.187
AAGUCCUGUGCUACACAUCGUAUGUACCGAAUCGGCCCCGGGCCCCGGGCCCCGGGAAAGUAUUAUGUUACGCCGUUCGGAUCUGCACUU: -2.6
AGUCCUGUGCUACACAUCGUAUGUACCGAAUCGGGGUUUGGGGUUUGGGGAAAGGGGAAAGUAUUAUGUUACGCCGUUCGGAUCUGCACU: -0.845
UUAAAGAAAUGUCCACAAGUAACUUUGAAUCAUCUCCUGAAGUAGAAGAAAGGCCUGCUGUGUCUUUGACUCUUGAUCAGAGCCAGUCAC: -1.18
AGUCCUGUGCUACACAUCGUAUGUACCGAAUCGGGGUGGGGAAAGGGGUUUUUGGGGAAAGUAUUAUGUUACGCCGUUCGGAUCUGCACU: -0.926
CACAGACAACACGCACCCACACAGACACAGAGGGAAGGGGUUGGGAUGGGGACAGAAAGCACAGCAGGGCGGGGUAGGACCCCAGCCCCU: 0.364

Block 5 — technique: protein-binding microarray; form: double-stranded DNA, one strand shown; medium: in vitro; tested at: 250 nM; notes: 60-bp whole probe; with: salmon DNA 0.4 mg/ml; baseline: random background probes; direction: higher = stronger binding; endpoint: log fluorescence; all sequences stand within: GCCTAGCAC … GTCTTGATTCGCTTGACGCTGCTG
Target: Interferon regulatory factor 5, full length, phosphomimetic (IRF5, Homo sapiens, UniProt Q13568-2, residues 1-514, K96S/S451D/S453D/S456D/S462D)
GGACGGCAGTGCACACAGTGGTGCTAG: -0.532 z-score
GACAATATCGGGACTGGAGACGTGCTA: 1.32 z-score
TTAGGACTGCTTATCCTTTAGTGCTAG: -0.225 z-score
TCACTGCTACCCTTTGAAACTGTGCTA: 0.236 z-score
TCATTTTGCACTCTCTAACTGTGCTAG: 0.692 z-score
GACGGTGTCGACACTGGGGACGTGCTA: -0.368 z-score
GACGGATTCGACTATCGGGACGTGCTA: 1.65 z-score
GCCGAACTGGGGTATCGAGACGTGCTA: 0.253 z-score
GACGATTTCAGTTTCTAGACGTGCTAG: 2.46 z-score
GACGGTTTTGGGACTGGGGACGTGCTA: 0.214 z-score
GACGGACTGGGTATCTGGACGTGCTAG: -0.495 z-score
TTTGGACTGGACTATCGGTTAGTGCTA: 5.77 z-score
TCATATATTTTAATCACACTGTGCTAG: 0.775 z-score
AAACGGATGATCTCTCTGGGCGTGCTA: -0.042 z-score
GACGGACTGGACAATGGGGACGTGCTA: -0.234 z-score
TTAGGACTGGTACTGCTTTAGTGCTAG: -0.285 z-score
TTAGATCTCAAACTGGATTAGTGCTAG: -0.111 z-score
GACGGTATCGGGTATCGGGTCGTGCTA: 3.95 z-score
TTAGGGCTGCTTATCCTTTAGTGCTAG: -0.641 z-score
GACGAACTGAGTCTAGAGACGTGCTAG: -0.471 z-score
TTAGAACTAAGTCTCGATTAGTGCTAG: 0.692 z-score
GACGGTTTCGGACTGGAGACGTGCTAG: 4.18 z-score
TAAGGACTGGGTATCGGTTAGTGCTAG: 4.28 z-score
CAGAAGTTCATGTTCAACCAGTGCTAG: -0.0659 z-score
GACGGACTGCTTTTCCTGATGTGCTAG: -0.0264 z-score

A few entries again (block 2):
CTTTGATC: -0.159
AGCCTTGA: -0.148
TACATTAA: -0.0996
CGTTCAAG: 0.161
CTGTTCAA: -0.099
AACTGGGC: -0.192
CGCGGACC: 0.307
GACGGACC: 0.192
ACGAGTAT: -0.0659
GTCTGAGA: -0.0619
CGATGACA: -0.0563
AACTGGCT: -0.236
